Results of several laboratories.
Compare with care: the assays were run in different laboratories. “And” joins repeats or separate records; there may be more than shown. ± marks the error that the study gave.
4'-phosphopantetheinyl transferase PptT: 4'-phosphopantetheinyl transferase PptT (Mycobacterium tuberculosis, UniProt O33336)
UniProt O33336, sequence (whole entry, looked up): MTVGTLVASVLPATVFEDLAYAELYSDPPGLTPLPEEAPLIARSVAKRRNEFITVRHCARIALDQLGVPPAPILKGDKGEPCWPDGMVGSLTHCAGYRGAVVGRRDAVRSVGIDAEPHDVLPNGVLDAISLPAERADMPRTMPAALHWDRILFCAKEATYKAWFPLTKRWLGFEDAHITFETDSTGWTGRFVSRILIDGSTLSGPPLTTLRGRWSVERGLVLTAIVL
Low molecular weight protein-tyrosine phosphatase A: Low molecular weight protein-tyrosine phosphatase A (Mycobacterium tuberculosis, UniProt P9WIA1)
UniProt P9WIA1, sequence (whole entry, looked up): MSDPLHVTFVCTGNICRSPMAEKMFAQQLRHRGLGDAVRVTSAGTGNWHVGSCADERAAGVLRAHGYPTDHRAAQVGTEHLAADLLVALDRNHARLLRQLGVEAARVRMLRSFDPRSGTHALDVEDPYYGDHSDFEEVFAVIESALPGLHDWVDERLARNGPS
NEK2: Serine/threonine-protein kinase Nek2 (NEK2, Homo sapiens, UniProt P51955)
UniProt P51955, sequence (whole entry, looked up): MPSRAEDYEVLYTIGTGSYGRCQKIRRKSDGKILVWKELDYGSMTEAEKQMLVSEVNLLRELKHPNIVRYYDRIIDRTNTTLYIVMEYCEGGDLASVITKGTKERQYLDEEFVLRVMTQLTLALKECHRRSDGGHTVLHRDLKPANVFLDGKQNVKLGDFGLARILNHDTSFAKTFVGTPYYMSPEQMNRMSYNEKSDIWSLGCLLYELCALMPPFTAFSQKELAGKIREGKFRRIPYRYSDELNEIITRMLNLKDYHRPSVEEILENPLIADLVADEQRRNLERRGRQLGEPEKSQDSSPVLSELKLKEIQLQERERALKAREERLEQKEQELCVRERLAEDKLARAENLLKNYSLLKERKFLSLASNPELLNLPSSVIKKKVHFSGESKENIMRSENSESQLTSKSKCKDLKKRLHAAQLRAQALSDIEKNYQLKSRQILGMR
cyp121: Mycocyclosin synthase (cyp121, Mycobacterium tuberculosis, UniProt P9WPP7)
UniProt P9WPP7, sequence (whole entry, looked up): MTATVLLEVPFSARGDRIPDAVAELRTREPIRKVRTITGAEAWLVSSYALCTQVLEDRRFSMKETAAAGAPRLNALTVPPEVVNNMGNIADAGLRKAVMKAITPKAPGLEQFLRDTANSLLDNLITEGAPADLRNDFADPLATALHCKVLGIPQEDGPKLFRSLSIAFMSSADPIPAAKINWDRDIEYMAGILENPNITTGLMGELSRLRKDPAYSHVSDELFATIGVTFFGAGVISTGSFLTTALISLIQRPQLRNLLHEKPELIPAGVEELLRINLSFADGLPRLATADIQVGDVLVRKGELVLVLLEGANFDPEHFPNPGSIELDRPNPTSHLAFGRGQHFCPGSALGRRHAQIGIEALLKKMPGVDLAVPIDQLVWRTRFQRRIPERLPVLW
UniProt P42575, sequence (whole entry, looked up): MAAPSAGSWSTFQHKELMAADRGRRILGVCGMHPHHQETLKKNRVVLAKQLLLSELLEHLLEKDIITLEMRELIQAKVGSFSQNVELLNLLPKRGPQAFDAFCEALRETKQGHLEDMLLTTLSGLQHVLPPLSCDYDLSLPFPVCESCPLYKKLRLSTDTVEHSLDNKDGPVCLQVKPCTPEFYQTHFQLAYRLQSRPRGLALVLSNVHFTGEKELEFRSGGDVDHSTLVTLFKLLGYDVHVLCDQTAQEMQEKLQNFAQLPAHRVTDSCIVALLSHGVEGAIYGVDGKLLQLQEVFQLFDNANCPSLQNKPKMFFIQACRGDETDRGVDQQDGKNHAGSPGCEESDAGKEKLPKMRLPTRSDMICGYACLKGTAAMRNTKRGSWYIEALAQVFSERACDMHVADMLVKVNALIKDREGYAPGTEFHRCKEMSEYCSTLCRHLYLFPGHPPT
UniProt Q9H2X3, sequence (whole entry, looked up): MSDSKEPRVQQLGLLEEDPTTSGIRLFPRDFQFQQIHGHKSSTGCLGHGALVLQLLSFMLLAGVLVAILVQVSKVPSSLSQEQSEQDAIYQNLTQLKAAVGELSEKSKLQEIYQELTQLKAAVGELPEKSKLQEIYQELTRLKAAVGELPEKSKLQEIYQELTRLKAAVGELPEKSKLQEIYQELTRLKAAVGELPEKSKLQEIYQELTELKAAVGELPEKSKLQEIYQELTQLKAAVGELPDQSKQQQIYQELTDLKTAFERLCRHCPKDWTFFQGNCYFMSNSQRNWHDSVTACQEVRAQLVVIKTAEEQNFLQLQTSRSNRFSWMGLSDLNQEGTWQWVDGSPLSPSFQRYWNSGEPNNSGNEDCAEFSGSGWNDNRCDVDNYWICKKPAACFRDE
UniProt P47026, sequence (whole entry, looked up): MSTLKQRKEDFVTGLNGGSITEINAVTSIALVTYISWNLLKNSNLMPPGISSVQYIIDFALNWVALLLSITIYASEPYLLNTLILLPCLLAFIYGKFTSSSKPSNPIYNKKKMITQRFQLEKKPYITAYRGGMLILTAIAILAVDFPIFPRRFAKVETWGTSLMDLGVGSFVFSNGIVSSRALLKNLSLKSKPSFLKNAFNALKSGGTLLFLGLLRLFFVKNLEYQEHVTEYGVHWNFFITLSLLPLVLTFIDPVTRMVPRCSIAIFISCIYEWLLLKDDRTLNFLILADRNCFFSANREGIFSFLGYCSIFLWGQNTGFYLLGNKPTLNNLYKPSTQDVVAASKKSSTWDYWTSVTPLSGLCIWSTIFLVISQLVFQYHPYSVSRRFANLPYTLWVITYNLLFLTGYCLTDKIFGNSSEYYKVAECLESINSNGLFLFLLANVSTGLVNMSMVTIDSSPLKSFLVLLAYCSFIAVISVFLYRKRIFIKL
UniProt P17658, sequence (whole entry, looked up): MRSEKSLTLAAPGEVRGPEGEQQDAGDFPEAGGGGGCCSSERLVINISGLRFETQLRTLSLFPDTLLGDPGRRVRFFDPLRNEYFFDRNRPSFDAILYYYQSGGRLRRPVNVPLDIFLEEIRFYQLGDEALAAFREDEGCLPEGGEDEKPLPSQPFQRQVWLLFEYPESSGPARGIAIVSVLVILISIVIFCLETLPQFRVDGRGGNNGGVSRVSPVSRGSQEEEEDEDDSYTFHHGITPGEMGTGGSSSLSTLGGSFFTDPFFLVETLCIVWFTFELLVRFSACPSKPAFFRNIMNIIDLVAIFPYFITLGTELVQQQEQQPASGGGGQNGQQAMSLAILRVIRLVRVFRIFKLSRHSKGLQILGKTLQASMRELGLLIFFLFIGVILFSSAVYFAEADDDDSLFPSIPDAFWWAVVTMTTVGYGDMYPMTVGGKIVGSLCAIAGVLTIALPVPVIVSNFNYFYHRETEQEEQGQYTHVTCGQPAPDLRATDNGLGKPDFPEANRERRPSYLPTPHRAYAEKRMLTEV

| Compound | target or system | test | system | setting | scale | quantity | result |
| --- | --- | --- | --- | --- | --- | --- | --- |
| C#CCN(Cc1ccc2nc(C)[nH]c(=O)c2c1)c1ccc(C(=O)NC(CCC(=O)O)C(=O)O)c(O)c1 (stereo not drawn) | 4'-phosphopantetheinyl transferase PptT | enzyme activity, inhibitor, FP |  |  |  | IC50 | 0.035 µM |
| N[C@@H](CCC(=O)N[C@@H](CS[Se]Cc1ccc(C(=O)Nc2ccccc2)cc1)C(=O)NCC(=O)O)C(=O)O | Low molecular weight protein-tyrosine phosphatase A | enzyme activity |  |  |  | IC50 | 2.83 µM |
| C#CCN(Cc1ccc2nc(C)[nH]c(=O)c2c1)c1cnc(C(=O)NC(CCC(=O)O)C(=O)O)s1 (stereo not drawn) | 4'-phosphopantetheinyl transferase PptT | enzyme activity, inhibitor, FP |  |  |  | IC50 | 0.043 µM |
| COc1ccccc1-c1n[nH]c2nc(NC3CCN(C(=O)Cc4ccc(F)cc4F)CC3)ncc12 |  | bead binding, competition bead pull-down, refers to: LINJ.09.0820 | Leishmania donovani extract | 10 µM | reference: vehicle | relative abundance | 1.18 |
| CC(C)[C@H]1NC(=O)C[C@H]2/C=C/CCSSC[C@@H](NC1=O)C(=O)N[C@H](Cc1cccc3ccccc13)C(=O)NCC(=O)O2 | NEK2 | enzyme activity, inhibitor |  | 10 µM |  | inhibition | 2.5% |
| Fc1ccc(-c2ccc(/C=C/Cn3ccnc3)cc2)cc1 | cyp121 | mycocyclosin formation, inhibitor, LC-MS/MS |  | added: cYY 20 µM |  | IC50 | 24 µM |
| O=C1NC2(CC2)COc2ncc(F)cc2[C@H]2COCCN2c2ccn3ncc1c3n2 |  |  | Sprague-Dawley rat, male, blood | oral, 10 mg/kg/day, end of treatment, 4-week repeated-dose toxicity | reference: red blood cells | reticulocytes | 2.43 ± 1.95% |
| CN(C)[C@H]1C[C@@]23CC[C@@]4(O2)C(=CC[C@]2(C)[C@@H](c5ccc6ccncc6c5)CC[C@H]24)C=C3[C@@H](O)[C@@H]1O | NEK2 | ATP probe labelling, inhibitor, KiNativ profiling |  | 1 µM |  | inhibition | 8.3% |
| N[C@@H](CCC(=O)N[C@@H](CS[Se]Cc1ccccc1)C(=O)NCC(=O)O)C(=O)O | Low molecular weight protein-tyrosine phosphatase A | enzyme activity |  |  |  | IC50 | 9.08 µM |
| CC(C)CC(C(=O)N1CC2(CC1C#N)C(=O)Nc1ccccc12)N(C)C(=O)c1cc2c(F)cc(F)c(F)c2[nH]1 (stereo not drawn) | Caspase-2 (Homo sapiens, UniProt P42575) | enzyme activity, inhibitor |  |  |  | IC50 | 4.63 µM and 4.6 µM |
| N=C(N)NCc1cn([C@@H]2[C@@H](OCCCl)O[C@H](CO)[C@@H](O)[C@@H]2O)nn1 | C-type lectin domain family 4 member M, extracellular domain (CLEC4M, Homo sapiens, UniProt Q9H2X3) | inhibitor |  |  |  | IC50 | 24.1 µM and 23.7 µM |
| CC(C)(C)C(=O)OCOP(=O)(OCOC(=O)C(C)(C)C)C1CCCN(O)C1=O (stereo not drawn) | RXF 393 |  |  |  |  | log GI50 | -6.44 log M |
| CC[C@H](C)[C@@H]1NC(=O)[C@@H](NC(=O)CNC(=O)[C@@H](N)CCCCN)CSSC[C@@H]2NC(=O)[C@@H]3CSSC[C@H](NC(=O)[C@H](CCC(N)=O)NC(=O)[C@H](CC(C)C)NC(=O)[C@@H]4CCCN4C(=O)[C@H](CCCNC(=N)N)NC2=O)C(=O)N[C@@H](CCCCN)C(=O)NCC(=O)N2CCC[C@H]2C(=O)N[C@@H](CO)C(=O)N2CCC[C@H]2C(=O)N[C@@H](CCCCN)C(=O)N[C@@H](CCC(N)=O)C(=O)N[C@@H](CCCCN)C(=O)N[C@@H](CCCCN)C(=O)N[C@H](C(=O)N[C@H](C(=O)N[C@@H](CCCCN)C(=O)N[C@H](C(=O)O)C(C)C)[C@@H](C)O)CSSC[C@H](NC(=O)[C@H](Cc2c[nH]c4ccccc24)NC(=O)[C@H](CCCCN)NC(=O)CNC(=O)[C@H](CCC(=O)O)NC(=O)[C@H](CCCCN)NC1=O)C(=O)N1CCC[C@H]1C(=O)N[C@@H](CCCCN)C(=O)N[C@@H]([C@@H](C)O)C(=O)N[C@@H](C)C(=O)N1CCC[C@H]1C(=O)N3 | Potassium voltage-gated channel subfamily A member 6 (Homo sapiens, UniProt P17658) | ion current, inhibitor, patch clamp |  | pH 7.4 |  | IC50 | 0.0044 µM |
| c1cn(Cc2ccc(-c3ccc4c(c3)OCO4)cc2)cn1 | cyp121 | substrate depletion, inhibitor, LC-MS/MS |  | added: cYY 20 µM |  | IC50 | 34 µM |
| C#CCN(Cc1ccc2nc(C)[nH]c(=O)c2c1)c1ccc(C(=O)NC(CCC(=O)O)C(=O)O)cc1 (stereo not drawn) | 4'-phosphopantetheinyl transferase PptT | enzyme activity, inhibitor, FP |  |  |  | IC50 | 0.065 µM |
| Nc1ccccc1C(=O)OCC#CCOC(=O)c1ccccc1N | GPI-anchored wall transfer protein 1 (GWT1, Saccharomyces cerevisiae, UniProt P47026) | GlcN-PI acylation, inhibitor, TLC | Saccharomyces cerevisiae membranes |  |  | IC50 | ~61.7 µM |
| CN(Cc1ccc2ncccc2c1)c1ccc(C(=O)NC(CCC(=O)O)C(=O)O)cc1 (stereo not drawn) | 4'-phosphopantetheinyl transferase PptT | enzyme activity, inhibitor, fluorescence polarization |  | enzyme 100 nM |  | IC50 | > 25 µM |
| COc1ccccc1-c1n[nH]c2nc(N[C@H]3CC[C@H](NS(=O)(=O)CC(C)C)CC3)ncc12 |  | bead binding, competition bead pull-down, refers to: LINJ.21.1320 | Leishmania donovani extract | 10 µM | reference: vehicle | relative abundance | 0.85 |

Repeated from above:
| Compound | target or system | test | system | setting | scale | quantity | result |
| --- | --- | --- | --- | --- | --- | --- | --- |
| N=C(N)NCc1cn([C@@H]2[C@@H](OCCCl)O[C@H](CO)[C@@H](O)[C@@H]2O)nn1 | C-type lectin domain family 4 member M, extracellular domain (CLEC4M, Homo sapiens, UniProt Q9H2X3) | inhibitor |  |  |  | IC50 | 24.1 µM and 23.7 µM |
| CN(Cc1ccc2ncccc2c1)c1ccc(C(=O)NC(CCC(=O)O)C(=O)O)cc1 (stereo not drawn) | 4'-phosphopantetheinyl transferase PptT | enzyme activity, inhibitor, fluorescence polarization |  | enzyme 100 nM |  | IC50 | > 25 µM |
